Measurements pooled from the literature.
Every numbered part comes from another study and shows a few of its results, in no order. Several values in a cell are separate wells, animals, samples, runs or records.
Sequence of UniProt Q96SW2 (whole entry, looked up): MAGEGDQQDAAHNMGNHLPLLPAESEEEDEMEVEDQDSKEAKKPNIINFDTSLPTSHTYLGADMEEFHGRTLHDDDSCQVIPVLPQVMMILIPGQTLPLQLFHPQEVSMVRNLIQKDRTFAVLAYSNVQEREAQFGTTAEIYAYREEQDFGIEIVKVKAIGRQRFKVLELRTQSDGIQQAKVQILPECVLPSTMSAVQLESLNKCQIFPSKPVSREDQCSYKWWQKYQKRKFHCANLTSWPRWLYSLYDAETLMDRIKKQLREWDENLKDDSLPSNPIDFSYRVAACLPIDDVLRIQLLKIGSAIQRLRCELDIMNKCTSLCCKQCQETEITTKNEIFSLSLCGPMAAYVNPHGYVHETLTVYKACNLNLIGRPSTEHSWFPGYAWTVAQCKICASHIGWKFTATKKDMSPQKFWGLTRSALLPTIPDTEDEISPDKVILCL
Sequence of UniProt O15075 (whole entry, looked up): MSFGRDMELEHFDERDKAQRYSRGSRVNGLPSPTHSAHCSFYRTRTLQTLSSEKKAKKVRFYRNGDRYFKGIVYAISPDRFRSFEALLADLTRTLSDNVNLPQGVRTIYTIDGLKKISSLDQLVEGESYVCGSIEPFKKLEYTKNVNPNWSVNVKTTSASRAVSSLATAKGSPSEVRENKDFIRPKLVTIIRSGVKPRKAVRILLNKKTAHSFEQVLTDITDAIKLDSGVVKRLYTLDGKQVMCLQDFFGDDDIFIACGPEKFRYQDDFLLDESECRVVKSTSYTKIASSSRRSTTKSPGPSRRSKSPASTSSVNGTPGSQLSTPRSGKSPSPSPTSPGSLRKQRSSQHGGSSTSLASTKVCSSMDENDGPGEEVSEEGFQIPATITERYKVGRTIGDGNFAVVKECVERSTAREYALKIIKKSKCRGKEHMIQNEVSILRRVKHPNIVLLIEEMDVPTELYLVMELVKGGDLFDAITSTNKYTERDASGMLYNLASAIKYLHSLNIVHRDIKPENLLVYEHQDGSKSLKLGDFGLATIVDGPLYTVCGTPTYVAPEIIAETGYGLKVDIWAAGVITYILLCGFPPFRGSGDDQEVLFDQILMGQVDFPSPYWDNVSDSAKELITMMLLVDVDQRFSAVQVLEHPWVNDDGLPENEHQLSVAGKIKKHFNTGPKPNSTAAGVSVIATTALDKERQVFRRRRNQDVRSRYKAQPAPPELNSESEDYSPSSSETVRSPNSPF
Sequence of UniProt Q00536 (whole entry, looked up): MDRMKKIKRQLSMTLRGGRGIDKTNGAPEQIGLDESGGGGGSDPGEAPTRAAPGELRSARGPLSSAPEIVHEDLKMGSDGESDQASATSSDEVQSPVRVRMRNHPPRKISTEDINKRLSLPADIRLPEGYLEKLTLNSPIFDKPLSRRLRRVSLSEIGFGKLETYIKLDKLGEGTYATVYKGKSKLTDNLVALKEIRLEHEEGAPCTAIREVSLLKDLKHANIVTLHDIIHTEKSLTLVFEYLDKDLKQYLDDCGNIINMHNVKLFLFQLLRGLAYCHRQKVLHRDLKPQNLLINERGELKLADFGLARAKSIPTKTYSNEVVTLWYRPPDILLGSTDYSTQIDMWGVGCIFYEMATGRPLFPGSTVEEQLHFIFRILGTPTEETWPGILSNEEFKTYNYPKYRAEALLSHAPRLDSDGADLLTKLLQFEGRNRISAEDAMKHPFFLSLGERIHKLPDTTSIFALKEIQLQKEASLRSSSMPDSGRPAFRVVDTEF
Sequence of UniProt P11309 (whole entry, looked up): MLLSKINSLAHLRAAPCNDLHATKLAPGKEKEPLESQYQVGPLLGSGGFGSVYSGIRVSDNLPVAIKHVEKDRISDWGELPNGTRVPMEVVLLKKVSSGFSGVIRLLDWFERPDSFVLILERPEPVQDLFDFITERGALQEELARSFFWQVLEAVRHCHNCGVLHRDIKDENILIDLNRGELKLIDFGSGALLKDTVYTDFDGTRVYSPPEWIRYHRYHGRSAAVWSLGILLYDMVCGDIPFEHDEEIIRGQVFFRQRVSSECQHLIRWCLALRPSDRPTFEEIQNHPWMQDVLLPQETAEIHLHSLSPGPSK
Sequence of UniProt Q15835 (whole entry, looked up): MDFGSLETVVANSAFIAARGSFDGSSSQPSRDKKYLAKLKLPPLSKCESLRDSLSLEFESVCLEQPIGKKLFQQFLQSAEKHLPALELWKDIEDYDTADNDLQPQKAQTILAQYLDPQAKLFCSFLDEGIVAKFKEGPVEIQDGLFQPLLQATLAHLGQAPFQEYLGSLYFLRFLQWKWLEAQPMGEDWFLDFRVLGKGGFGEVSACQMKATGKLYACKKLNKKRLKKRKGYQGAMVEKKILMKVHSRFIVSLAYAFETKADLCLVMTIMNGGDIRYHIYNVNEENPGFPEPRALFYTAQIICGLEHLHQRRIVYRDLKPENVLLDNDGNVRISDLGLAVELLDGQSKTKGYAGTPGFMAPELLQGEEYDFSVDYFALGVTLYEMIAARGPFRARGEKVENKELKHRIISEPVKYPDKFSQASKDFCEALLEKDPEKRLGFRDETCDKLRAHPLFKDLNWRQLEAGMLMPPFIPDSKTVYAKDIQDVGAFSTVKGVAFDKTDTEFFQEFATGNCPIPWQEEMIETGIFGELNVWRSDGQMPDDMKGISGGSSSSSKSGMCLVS
Sequence of UniProt Q9P1W9 (whole entry, looked up): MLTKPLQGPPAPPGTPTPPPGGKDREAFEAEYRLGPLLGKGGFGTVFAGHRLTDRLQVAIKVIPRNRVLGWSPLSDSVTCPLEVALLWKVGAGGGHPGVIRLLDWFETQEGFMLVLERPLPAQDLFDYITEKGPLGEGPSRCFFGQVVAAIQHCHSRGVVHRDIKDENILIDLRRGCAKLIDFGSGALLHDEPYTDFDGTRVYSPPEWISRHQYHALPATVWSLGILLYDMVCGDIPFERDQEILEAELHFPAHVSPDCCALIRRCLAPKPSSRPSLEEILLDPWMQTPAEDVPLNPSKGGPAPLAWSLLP

Block 1
SMILES: COc1cc(-c2nc3ccc(C(=O)NCCCN(C)C)cc3n2C2CCC2)cc(OC)c1OC
Observed: binding
Method: competition with immobilised ligand
Concentration: 1 µM
For Serine/threonine-protein kinase DCLK1 (DCLK1, Homo sapiens, UniProt O15075): remaining binding read 93%.
Serine/threonine-protein kinase pim-1 (PIM1, Homo sapiens, UniProt P11309) — remaining binding: 80%.
Serine/threonine-protein kinase pim-2 (PIM2, Homo sapiens, UniProt Q9P1W9) — remaining binding: 91%.
For Epidermal growth factor receptor (EGFR, Homo sapiens, UniProt P00533, del747-752/P753S): remaining binding read 88%.
It gave 98% for remaining binding (Cyclin-dependent kinase 16 (CDK16, Homo sapiens, UniProt Q00536)).
It gave 86% for remaining binding (Ephrin type-A receptor 2 (EPHA2, Homo sapiens, UniProt P29317)).
Uncharacterized serine/threonine-protein kinase SBK3 (SBK3, Homo sapiens, UniProt P0C264) — remaining binding: 100%.
It gave 80% for remaining binding (Serine/threonine-protein kinase 10 (STK10, Homo sapiens, UniProt O94804)).
The remaining binding was 90% (Rhodopsin kinase GRK1 (GRK1, Homo sapiens, UniProt Q15835)).
Cyclin-dependent kinase 4 (CDK4, Homo sapiens, UniProt P11802) — remaining binding: 100%.

Block 2
SMILES: Cc1ccc(O)c(C)c1-c1cnc2[nH]c(-c3cnc(N4CCC5(CC4)CC(N4CCN(c6ccc(N[C@H]7CCC(=O)NC7=O)cc6F)CC4)CO5)nc3)cc2c1C#N (single isomer, unassigned)
PKMYT1: Membrane-associated tyrosine- and threonine-specific cdc2-inhibitory kinase (PKMYT1, Homo sapiens, UniProt Q99640)
Sequence of UniProt Q99640 (whole entry, looked up): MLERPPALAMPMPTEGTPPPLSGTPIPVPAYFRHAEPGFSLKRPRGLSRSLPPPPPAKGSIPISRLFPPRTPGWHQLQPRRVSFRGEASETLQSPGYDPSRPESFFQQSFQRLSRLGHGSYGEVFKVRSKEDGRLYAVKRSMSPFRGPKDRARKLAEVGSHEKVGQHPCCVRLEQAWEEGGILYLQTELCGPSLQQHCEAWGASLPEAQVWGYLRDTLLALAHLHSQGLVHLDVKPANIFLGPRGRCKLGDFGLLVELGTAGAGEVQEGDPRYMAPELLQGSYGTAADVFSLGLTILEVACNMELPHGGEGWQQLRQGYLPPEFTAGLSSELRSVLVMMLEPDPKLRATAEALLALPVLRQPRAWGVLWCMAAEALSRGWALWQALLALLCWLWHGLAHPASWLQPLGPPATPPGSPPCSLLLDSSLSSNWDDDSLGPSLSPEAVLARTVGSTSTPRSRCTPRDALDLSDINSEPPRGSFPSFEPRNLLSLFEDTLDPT
The inhibition was 12.8% and 7.26% (PKMYT1; 0.5081 nM).
It gave 54.1% for inhibition (PKMYT1; enzyme activity, inhibitor; 4.572 nM).
It gave 10.2% for inhibition (PKMYT1; enzyme activity, inhibitor; 508.1 pM).
Protein cereblon (CRBN, Homo sapiens, UniProt Q96SW2); binding; 1111.11 nM — inhibition: 24.8% and 21.2%.
The inhibition was -0.87% and 7% and 5.18% (HCC1806; cell proliferation; 13.72 nM).
The inhibition was 94.7% and 93% (PKMYT1; 41.15 nM).
The inhibition was 97.6% (PKMYT1; 0.3704 µM).
It gave -26.9% and -31% and -22.3% for inhibition (NCI-H1648; cell proliferation; 123.5 nM).
SRC; KINOMEscan; 1000 nM — inhibition: 81%.

Block 3
Structure (SMILES): C[C@@H]1CN(c2ccc(-c3cc(C(=O)NCCOCCOCCOCCOCCNC(=O)Cn4cc(-c5[nH]cc(C(=O)N[C@@H](CC(N)=O)c6ccc(F)c(Cl)c6)c5-c5ccc(Cl)cc5F)cn4)ccc3F)cc2NC(=O)c2c[nH]c(=O)cc2C(F)(F)F)C[C@H](C)N1C
Observed: thermal unfolding
Method: differential scanning fluorimetry
Concentration: 5.5 µM
Reading: higher = more unfolded
WDR5: WD repeat-containing protein 5 (WDR5, Homo sapiens, UniProt P61964)
DCAF1: DDB1- and CUL4-associated factor 1 (DCAF1, Homo sapiens, UniProt Q9Y4B6)
Sequence of UniProt Q9Y4B6 (whole entry, looked up): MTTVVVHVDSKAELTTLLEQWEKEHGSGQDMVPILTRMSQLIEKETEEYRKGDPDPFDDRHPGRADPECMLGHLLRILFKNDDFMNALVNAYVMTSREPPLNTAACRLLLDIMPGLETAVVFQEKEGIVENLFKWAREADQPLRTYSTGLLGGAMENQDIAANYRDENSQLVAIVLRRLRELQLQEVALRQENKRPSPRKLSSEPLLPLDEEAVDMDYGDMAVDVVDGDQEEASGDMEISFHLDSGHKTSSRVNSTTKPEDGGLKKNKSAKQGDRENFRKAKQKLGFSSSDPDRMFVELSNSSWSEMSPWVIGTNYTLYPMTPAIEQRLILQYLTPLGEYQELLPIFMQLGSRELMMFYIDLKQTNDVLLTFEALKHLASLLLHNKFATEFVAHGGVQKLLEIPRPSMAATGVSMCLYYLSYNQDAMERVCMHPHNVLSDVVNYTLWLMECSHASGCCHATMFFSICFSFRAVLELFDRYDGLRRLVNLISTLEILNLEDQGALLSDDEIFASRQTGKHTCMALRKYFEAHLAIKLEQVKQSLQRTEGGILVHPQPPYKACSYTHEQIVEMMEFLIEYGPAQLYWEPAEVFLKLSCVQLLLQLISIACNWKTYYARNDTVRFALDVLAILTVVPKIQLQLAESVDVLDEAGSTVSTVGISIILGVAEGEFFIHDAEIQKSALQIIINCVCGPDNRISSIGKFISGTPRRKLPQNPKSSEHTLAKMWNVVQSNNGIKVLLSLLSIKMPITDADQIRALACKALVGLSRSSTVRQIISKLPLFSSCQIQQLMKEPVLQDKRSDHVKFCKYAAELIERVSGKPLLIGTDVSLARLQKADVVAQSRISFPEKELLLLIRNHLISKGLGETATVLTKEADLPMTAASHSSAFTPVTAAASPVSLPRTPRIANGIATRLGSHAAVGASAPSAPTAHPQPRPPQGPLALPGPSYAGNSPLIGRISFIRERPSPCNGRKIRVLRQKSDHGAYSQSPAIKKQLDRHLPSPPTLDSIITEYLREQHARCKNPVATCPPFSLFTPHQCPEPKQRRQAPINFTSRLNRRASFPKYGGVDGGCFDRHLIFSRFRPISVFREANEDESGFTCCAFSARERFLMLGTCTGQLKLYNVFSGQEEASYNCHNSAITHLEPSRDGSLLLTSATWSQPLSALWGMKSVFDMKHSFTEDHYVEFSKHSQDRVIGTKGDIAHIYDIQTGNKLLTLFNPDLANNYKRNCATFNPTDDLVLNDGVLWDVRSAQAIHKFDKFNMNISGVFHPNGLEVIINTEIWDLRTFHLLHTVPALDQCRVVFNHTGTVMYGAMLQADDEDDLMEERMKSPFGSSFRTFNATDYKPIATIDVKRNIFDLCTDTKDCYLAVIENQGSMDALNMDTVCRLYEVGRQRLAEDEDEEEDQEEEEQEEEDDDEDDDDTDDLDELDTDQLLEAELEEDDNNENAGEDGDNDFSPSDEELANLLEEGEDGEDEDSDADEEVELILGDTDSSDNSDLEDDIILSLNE
The “SYPRO Orange fluorescence” was 19600 a.u. (WDR5; 78.81 °C).
The “SYPRO Orange fluorescence” was 50100 a.u. (DCAF1; 74.21 °C).
For WDR5; 60.41 °C: “SYPRO Orange fluorescence” read 10100 a.u.
The “SYPRO Orange fluorescence” was 7790 a.u. (DCAF1; 27.8 °C).
For DCAF1; 74.41 °C: “SYPRO Orange fluorescence” read 49900 a.u.
It gave 41800 a.u. for “SYPRO Orange fluorescence” (WDR5; 86.21 °C).
The “SYPRO Orange fluorescence” was 38900 a.u. (DCAF1; 85.81 °C).
WDR5; 29 °C — “SYPRO Orange fluorescence”: 14900 a.u.

Further values, each from its own experiment
`CN(C1COC1)C(C)(C)/C=C(\C#N)C(=O)N1CCC[C@H]1Cn1nc(-c2ccc(Oc3ccccc3)cc2F)c2c(N)ncnc21` gave an inhibition of -2% (Mitogen-activated protein kinase 14 (MAPK14, Homo sapiens, UniProt Q16539); kinase activity; 1 µM).

Repeated from above (block 3):
The “SYPRO Orange fluorescence” was 19600 a.u. (WDR5; 78.81 °C).
It gave 41800 a.u. for “SYPRO Orange fluorescence” (WDR5; 86.21 °C).
WDR5; 29 °C — “SYPRO Orange fluorescence”: 14900 a.u.
The “SYPRO Orange fluorescence” was 7790 a.u. (DCAF1; 27.8 °C).
